Measured values collected from several papers.
A part holds a random share of what one study measured. Changes are numbered by the printed parent chain.

Series 1 — technique: protein binding microarray; form: double-stranded DNA, one strand shown; medium: in vitro; tested at: not given; baseline: not given; reading: higher = stronger binding; endpoint: E-score
Target: Histone acetyltransferase KAT6A, both winged helices, GST fusion (KAT6A, Homo sapiens, UniProt Q92794, residues 1-181)
Setting: 8-mer, flanks averaged, mean of 2 arrays, mostly near background
Target sequence (chain): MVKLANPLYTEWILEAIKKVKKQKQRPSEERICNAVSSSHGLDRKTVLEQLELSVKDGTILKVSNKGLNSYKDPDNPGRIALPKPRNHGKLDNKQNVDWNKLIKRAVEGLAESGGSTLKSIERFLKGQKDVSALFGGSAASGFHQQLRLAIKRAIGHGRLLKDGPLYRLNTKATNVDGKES
ATATTTTA: -0.132
GGCAAGAA: -0.0435
CCGACCCA: 0.103
CGGACACG: 0.266
CACGAATC: 0.00258
ATACAACC: 0.227
AAGAACTT: -0.0418
GCCGATCC: 0.186
AACTGGAG: -0.107
CAGTCACA: -0.137
CAGGCTTC: -0.0134
CTCGGCAA: 0.117
GAGAGGGA: -0.152
ATGGGTTC: -0.158
ACGCCTGC: -0.0543
ACGTCAGA: -0.173
GACGGTCA: 0.136
AGAGCGAT: -0.128
GCGGCTGA: 0.243
AACTGCCA: -0.0301
CCGTGTTA: 0.205
CAGGAAAA: -0.0683
ACGACGGC: 0.237
GCAACTCA: -0.0641
CGCTTGTA: 0.195

Series 2 — technique: protein-binding microarray; form: double-stranded DNA, one strand shown; medium: in vitro; tested at: 0.8 µM; setting: whole 60-bp probe, no competitor; reading: higher = stronger binding; endpoint: fluorescence intensity; constant ends, left off below: … GTCTTGATTCGCTTGACGCTGCTG
Target: Centromere-binding protein 1, full length, N-terminal tag (CBF1, Saccharomyces cerevisiae, UniProt P17106, residues 1-351)
Sequence of UniProt P17106 (whole entry, looked up): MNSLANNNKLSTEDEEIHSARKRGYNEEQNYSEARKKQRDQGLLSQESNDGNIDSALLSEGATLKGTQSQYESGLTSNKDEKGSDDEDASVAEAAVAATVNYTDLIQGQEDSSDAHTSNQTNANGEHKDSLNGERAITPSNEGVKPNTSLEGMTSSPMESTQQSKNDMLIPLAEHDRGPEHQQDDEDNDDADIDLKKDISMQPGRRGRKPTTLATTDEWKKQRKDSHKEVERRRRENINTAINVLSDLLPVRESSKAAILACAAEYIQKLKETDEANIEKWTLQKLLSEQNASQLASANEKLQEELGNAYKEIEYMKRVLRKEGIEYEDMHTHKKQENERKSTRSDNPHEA
CTAGGTTGTTTTCCTATGATGACCAACCTTTGGTTC: 481 a.u.
CTACTTAATTAACACCACCTTTGAATAATTTATTTC: 528 a.u.
CTAATGAAACGCCATCACCTATCGACTAGTATTTTC: 520 a.u.
CTATAAACAAAATGCCACGTTCTGGCCTGATATTTC: 545 a.u.
GAATTGTGATCTTTCCACGTTCAGCAAGACACATAG: 538 a.u.
GAACCCCTCATTCCAGGCGTGACGGGATTTCTTTAG: 681 a.u.
CTAATTTAGAGTTTTCACGTTATGTGACCATCTTTC: 703 a.u.
CTAGGCGCTTTCTATCAGCTGTCATCGATTTGATTC: 632 a.u.
CTAATTCAACAACACCACCAGCAGCTCTGATTTTTC: 519 a.u.
CTACGAGAATTTGGGCACATGTGACCCGGAATGTTC: 11000 a.u.
GAAAATCGTGGAGATCATGTGTGCCAGAAAAGGTAG: 1450 a.u.
CTATAAGCATCGCACCACCTACAATACCCACGGTTC: 531 a.u.
CTAGCTAATGAGAAAAACACGGGTATACCGTCATTC: 527 a.u.
CTATTGACCCAGCGTGACGACAGTAGACTGTAATTC: 655 a.u.
CTATCAGTAGTTTGTCACCTTAGTTGGAGATAGTTC: 529 a.u.
GAAAGCTTACAATTGCACGTAGAGACTAGTATATAG: 507 a.u.
CTATACTGTATCTATTTCGTGACTTCTTAAATGTTC: 735 a.u.
CTATGTTGTATTGCTGCTGATGTTTTAGGCACTTTC: 578 a.u.
CTATTCAGATTGCATCATCAGAAAAGTAAAAATTTC: 534 a.u.
CTATTCTTTCATTGTGACATCAAAATGTTTTTATTC: 594 a.u.
GAACTACCCTGACGTCATCAGCGAAATTCGTTGTAG: 492 a.u.
TGTACGAAGCTATATGTCACCATTATAGTAGTTAGG: 542 a.u.
GAAGTGAATAAGCTTCGGGTGACCCTTATGGCATAG: 506 a.u.
GAATCACACCGGCACCACCTTGATTCCACACTGTAG: 503 a.u.
CTAATTCATTTTTTCCACGAGCCTCATCACACGTTC: 577 a.u.

Series 3 — technique: protein-binding microarray; form: double-stranded DNA, one strand shown; medium: in vitro; tested at: not given; reading: higher = stronger binding; endpoint: E-score
Target: Max dimerization protein 1, bHLH-zipper, MAX partner unstated (MXD1, Homo sapiens, UniProt Q05195, residues 56-136)
Setting: k-mer, scored over probes, only values ≥0.25
Construct (chain): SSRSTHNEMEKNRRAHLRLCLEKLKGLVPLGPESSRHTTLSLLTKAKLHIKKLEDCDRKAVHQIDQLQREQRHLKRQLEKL
ATGGGGGG: 0.365
ACCCCCGT: 0.251
CCATGTGA: 0.409
CCGCCACG: 0.343
CATGGAAC: 0.273
ACCCACCC: 0.367
CCCTCTCC: 0.27
CATGTTAC: 0.306
ATGTCACG: 0.326
CATGGCAG: 0.321

Series 4 — technique: DHFR PCA, deep sequencing; medium: yeast; with: (+)-ABA 17 µM; baseline: wild-type fitted maximum; reading: higher = stronger binding; endpoint: relative binding score
Target: ABI1, truncated, D143A, DHFR fusion (Arabidopsis thaliana)
Setting: methotrexate growth selection, single substitutions
Parent: PYL1, truncated, DHFR fusion (Arabidopsis thaliana); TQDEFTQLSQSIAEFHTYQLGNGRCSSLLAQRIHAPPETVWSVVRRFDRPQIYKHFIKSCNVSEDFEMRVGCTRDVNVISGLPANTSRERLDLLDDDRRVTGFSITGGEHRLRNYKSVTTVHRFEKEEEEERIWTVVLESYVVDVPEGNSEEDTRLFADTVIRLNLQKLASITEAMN
K116I: -0.442%
E127K: 95.5%
T17P: -15.9%
E14D: 68.1%
V161Y: 24.1%
V143P: -0.175%
I172M: 65.4%
E174L: 32.8%
Y53W: 77.8%
K54D: -6%
E128Y: 76%
L166F: 11.1%
V70S: 48.5%
D92S: 14.8%
S140D: -21.3%
P50S: 5.71%

Series 5 — target: CCNF, cyclin fold, Cln2 fusion (human); technique: yeast growth competition, sequencing; medium: yeast; setting: weak parent motif; baseline: not given; reading: higher = stronger binding; endpoint: normalised enrichment score
Parent: RP1L1 docking peptide (human); TLGLGPLSFTLED
ALGLGPLSFTLED [T1A]: -0.461
TLGLGPLSATLED [F9A]: -0.341
TLGLGPLSFTAED [L11A]: -0.576
TLGAGPLSFTLED [L4A]: -0.55
TAGLGPLSFTLED [L2A]: -0.694
TLALGPLSFTLED [G3A]: -0.59

Series 6 — technique: RNA Bind-n-Seq; form: RNA; medium: in vitro; tested at: 1 µM; setting: whole 134-nt RNA, ends assumed; with: 150 mM KCl; baseline: input library; reading: higher = stronger binding; endpoint: log2 enrichment
Target: Ras GTPase-activating protein-binding protein 1, C-terminal RGG region (G3BP1, Homo sapiens, UniProt Q13283)
Sequence of UniProt Q13283 (whole entry, looked up): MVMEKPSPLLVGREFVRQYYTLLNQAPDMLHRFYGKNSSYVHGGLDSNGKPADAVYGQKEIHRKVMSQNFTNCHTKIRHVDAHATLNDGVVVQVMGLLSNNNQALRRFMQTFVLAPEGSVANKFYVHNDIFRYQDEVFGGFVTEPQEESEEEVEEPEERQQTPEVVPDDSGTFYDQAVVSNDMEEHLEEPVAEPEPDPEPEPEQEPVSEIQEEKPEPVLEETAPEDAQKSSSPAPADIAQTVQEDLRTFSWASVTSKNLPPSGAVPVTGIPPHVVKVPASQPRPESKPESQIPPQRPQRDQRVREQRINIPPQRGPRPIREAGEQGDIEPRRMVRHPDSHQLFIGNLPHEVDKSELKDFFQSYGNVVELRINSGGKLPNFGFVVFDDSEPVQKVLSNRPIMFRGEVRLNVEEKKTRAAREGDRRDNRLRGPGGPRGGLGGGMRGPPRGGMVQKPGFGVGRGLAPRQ
Constant ends, left off below: GGGAGUUCUACAGUCCGACGAUC … UGGAAUUCUCGGGUGUCAAGG
CAAGUCCUGUGCUACACAUCGUAUGUACCGAAUCGGUUUUUUUGGAAAAAGGAGGAAAGUAUUAUGUUACGCCGUUCGGAUCUGCACUUC: -1.97
CUGUGCUACACAUCGUAUGUACCGAAUCGGGGAAAAAGGGGAAAAAGGGGUUUUUUUGGGGAAAGUAUUAUGUUACGCCGUUCGGAUCUG: 0.854
CCUCAAGUCCUGUGCUACACAUCGUAUGUACCGAAUCGGGGCGGGGCGGCGGAAAGUAUUAUGUUACGCCGUUCGGAUCUGCACUUCCAG: -1.32
UGGGAGGUGGAUUUUGUUUAUUUUUUUAGCUCAUUUCCAGGGGUGGGAAUUUUUCUUUAAUAUGUGUCAUGAAUAAAGUUGUUUUUGAAA: 3.05
AGUCCUGUGCUACACAUCGUAUGUACCGAAUCGGGGAGGGGAGGGGUUUUUUUGGGGAAAGUAUUAUGUUACGCCGUUCGGAUCUGCACU: 2.15
UGGCCCUGGUGGCAUGCGGGGAGGAAGAGGUGGCCUCAUGGAUCGUGGUGGUCCCGGUGGAAUGUUCAGAGGAGGCCGUGGUGGAGACAG: 3.34
UUUACCCCUCACUGGAGUCAGAUGAAGACAACCCCAUCUUUAAGUCCCGGUCGAAGAAAAGGAAAGGCUCAGACGACGCUCCCUACAGCC: -1.06
AAGUCCUGUGCUACACAUCGUAUGUACCGAAUCGGGUGGGUUUGGGAAAAAAAGGGAAAGUAUUAUGUUACGCCGUUCGGAUCUGCACUU: -0.0296
ACCAUGCAGGUGGGCACCUUUGGGAAGUGGGGCAAGGGGGGGAUAGGGAGGGGGGUAACACUUUGGGAACAGGUGGUCCCAGGUCGUUUC: -0.934

Some of these lines once more (series 6):
UUUACCCCUCACUGGAGUCAGAUGAAGACAACCCCAUCUUUAAGUCCCGGUCGAAGAAAAGGAAAGGCUCAGACGACGCUCCCUACAGCC: -1.06
AAGUCCUGUGCUACACAUCGUAUGUACCGAAUCGGGUGGGUUUGGGAAAAAAAGGGAAAGUAUUAUGUUACGCCGUUCGGAUCUGCACUU: -0.0296
CAAGUCCUGUGCUACACAUCGUAUGUACCGAAUCGGUUUUUUUGGAAAAAGGAGGAAAGUAUUAUGUUACGCCGUUCGGAUCUGCACUUC: -1.97
CCUCAAGUCCUGUGCUACACAUCGUAUGUACCGAAUCGGGGCGGGGCGGCGGAAAGUAUUAUGUUACGCCGUUCGGAUCUGCACUUCCAG: -1.32
CUGUGCUACACAUCGUAUGUACCGAAUCGGGGAAAAAGGGGAAAAAGGGGUUUUUUUGGGGAAAGUAUUAUGUUACGCCGUUCGGAUCUG: 0.854
